Measured values pooled from the literature.
Each line is one published result; not all experiments were run side by side. Several values in a cell are separate wells, animals, samples, runs or records. ± marks the error that the study gave. Converted amounts (≈) assume the structure as drawn.

O=C(Cc1ccc2ccccc2c1)N[C@H](Cc1ccccc1)C(=O)N[C@H](Cc1ccccc1)C(=O)N[C@H](Cc1ccc(OP(=O)(O)O)cc1)C(=O)N[C@H](Cc1ccc(OP(=O)(O)O)cc1)C(=O)O
time to near-complete dephosphorylation (alkaline phosphatase; substrate; 0.5 wt %, added: ALP 0.02 U/mL): ≤ 24 h

CCCCC/C=C/C(=O)CCc1ccc(O)c(OC)c1
IC50 (mAb 5-D8; antibody binding, indirect competitive ELISA; added: coating antigen hapten 1-OVA): 0.224 µg/mL (≈ 0.809 µM)

Cc1sc2ncn(CC(=O)N3CCCC3)c(=O)c2c1-c1ccc(Cl)cc1
response (AMPA receptor; receptor response; 100 µM; relative to: control): 88 ± 6.4%

C[C@H](NC(=O)CNC(=O)[C@H](Cc1ccc(O)cc1)NC(=O)[C@@H](N)CSSC[C@H](N)C(=O)N[C@@H](Cc1ccc(O)cc1)C(=O)NCC(=O)N[C@@H](C)C(=O)N[C@@H](CCCCN)C(N)=O)C(=O)N[C@@H](CCCCN)C(N)=O
inhibition (calpain, rabbit; enzyme activity; rabbit renal proximal tubule cells; 100 µM, 30 min): no inhibition

CN1CCCNC(=O)CC2(CCCCC2)CC(=O)NCCCN(C)CCCNc2cccc3c2C(=O)c2cccc(c2C3=O)NCCC1
melting temperature increase (telomeric G-quadruplex DNA; circular dichroism; 4.5 µM, 100 mM K+): 2.8 °C

C[C@H](CN(C)Cc1ccccc1)NC(=O)c1ccc(-c2noc(C(F)(F)[18F])n2)cc1
reduction of brain uptake (class IIa HDACs; microPET self-blocking; mouse, brain; 1.0 mg/kg; relative to: baseline): ~47% and 47%

Cc1ccc2c(c1)nc(/C=C/c1cccc3cccnc13)n2-c1cccc(OCCCN2CCN(C)CC2)c1
potency loss (PDE10A Q726A mutant; enzyme activity, inhibitor; relative to: mutant over wild type): 30 fold

Cc1c(-c2cccc(C3=NCCN3)c2)oc(-c2cccc(C3=NCCN3)c2)c1C
ΔTm (HSP90A promoter G-quadruplex DNA; G-quadruplex stabilisation, FRET melting; 1 µM): 27.7 °C

NC(=O)C1CCNC(=O)C(CCCNC(=O)c2cnccn2)NC(=O)C(CC2CCCCC2)NC(=O)C(CC2CC2)NC(=O)C=CC(=O)N1 (centres unmarked)
enrichment factor (AMPK; binding, DNA-templated library selection; one selection round): 1.2

OB(O)c1sccc1/C=N/OCc1ccccc1
inhibition (human pancreatic trypsin; enzyme activity, inhibitor; 100 µM): inactive

COc1cc(O)c(C(=O)/C=C/c2cccc3ccccc23)c(OC)c1
GI50 of mitoxantrone (ABCG2; cell growth, chemosensitizer, MTT; HEK293 transfected with ABCG2; 1 µM, 72 h): 0.0175 ± 0.0022 µM

O=c1c2ccccc2on1-c1ccccc1
inhibition (11 HDAC isoforms; up to 10 µM): no inhibition

COc1cc(CCC(C)=O)ccc1O
IC50 (mouse mAb 1-D6; antibody binding, indirect competitive ELISA; added: coating antigen 1-OVA): 0.165 µg/mL (≈ 0.85 µM)

CCOC(=O)CCc1ccc(N)cc1
average chemical shift perturbation (HBV core protein Cp149 dimer; solution NMR; 4 molar equivalents, pH 7.5, 295 K, average over eight residues; relative to: apo Cp149 dimer): < 0.029 ppm

COc1cc(/C=C/C(=O)CC(C)=O)ccc1O
increase (glutathione reductase; enzyme activity; MCF7; 25 µM, 48 h): 85%

CC(=O)[C@@]1(O)CC[C@H]2[C@@H]3CCC4=CC(=O)CC[C@]4(C)[C@H]3CC[C@@]21C
BRET signal (GPR126 N terminus to ECL2; conformational change): increased

COC(=O)CCc1ccc(N)cc1
average chemical shift perturbation (HBV core protein Cp149 dimer; solution NMR; 4 molar equivalents, pH 7.5, 295 K, average over eight residues; relative to: apo Cp149 dimer): < 0.029 ppm

CCOc1ccc(-c2nc3cc(-c4nc5cc(N6CCN(C)CC6)ccc5[nH]4)ccc3[nH]2)cc1
NC-RNA complex dissociation (HIV-1 nucleocapsid protein-RNA NC•SL4 complex; ESI-FTMS; 0.35 to 17.5 µM, added to preformed complex): no effect

CN1CCCNC(=O)c2cccc(c2)C(=O)NCCCN(C)CCCNc2cccc3c2C(=O)c2cccc(c2C3=O)NCCC1
melting temperature increase (telomeric G-quadruplex DNA; circular dichroism; 4.5 µM, 100 mM K+): 8.8 °C

CC[C@H](C)[C@H](NC(=O)[C@H](CC(C)C)NC(=O)[C@H](CCCCN)NC(=O)[C@@H](N)CCCCN)C(=O)N[C@H](C(=O)N[C@@H](Cc1ccccc1)C(=O)N[C@H](C(=O)N1CCC[C@H]1C(=O)N[C@@H](CCCCN)C(=O)N[C@@H](CCCCN)C(=O)N[C@H](C(=O)N[C@@H](CCCNC(=N)N)C(=O)N[C@@H](CCC(=O)O)C(=O)N[C@@H](CCCCN)C(=O)N[C@@H](CCCCN)C(=O)N[C@@H](CCCCN)C(=O)N[C@@H](CCC(=O)O)C(=O)N[C@@H](CS)C(=O)N[C@@H](CC(C)C)C(=O)N[C@H](C(=O)O)C(C)C)[C@@H](C)O)[C@@H](C)CC)[C@@H](C)O
affinity decrease (voltage-gated sodium channel, mouse; resurgent current, blocker; mouse CA3 neurons; -10 mV, kinetic model; relative to: wild-type peptide): 10 fold

Nc1ccc(Cc2ccccc2)cc1
average chemical shift perturbation (HBV core protein Cp149 dimer; solution NMR; 4 molar equivalents, pH 7.5, 295 K, average over eight residues; relative to: apo Cp149 dimer): 0.071 ppm

CCOC(=O)[C@H](CCCNC(N)=O)NC(=O)[C@H](Cc1c[nH]c2ccccc12)NC(=O)[C@@H]1CCCCN1C(=O)[C@H](Cc1ccccc1)N(C)C(=O)CCl
selectivity margin (human Pin1 Cys113; competitive chemoproteomics; HEK293 lysate; relative to: next strongest competing cysteine): 11 standard deviations

NC(=O)C1CCNC(=O)C(CCCNC(=O)c2cnccn2)NC(=O)C(CC2CCCCC2)NC(=O)C(CC=Cc2ccccc2)NC(=O)C=CC(=O)N1 (centres unmarked)
enrichment factor (AMPK; binding, DNA-templated library selection; one selection round): 0.88

CC(=O)c1cnc(N)nc1N1CC[C@H]1c1nn2ccc(Cl)c2c(=O)n1-c1ccccc1
binding (PI3K beta; KiNativ; dog white blood cell lysate; 1 µM): 78%

NC(=O)C1CCNC(=O)C(Cc2ccc([N+](=O)[O-])cc2)NC(=O)C(Cc2ccco2)NC(=O)C(CC2CC2)NC(=O)C=CC(=O)N1 (centres unmarked)
enrichment factor (AMPK; binding, DNA-templated library selection; one selection round): 1.4

O=C(Nc1ccc(S(=O)(=O)Nc2nccs2)cc1)c1cc(-c2ccccc2)nc2ccccc12
inhibition (ChREBP human; reporter gene, inhibitor, LPK promoter luciferase; HepG2; 3 µM, added: high glucose): ~30%

Repeated from above:
Cc1c(-c2cccc(C3=NCCN3)c2)oc(-c2cccc(C3=NCCN3)c2)c1C
ΔTm (HSP90A promoter G-quadruplex DNA; G-quadruplex stabilisation, FRET melting; 1 µM): 27.7 °C

NC(=O)C1CCNC(=O)C(CCCNC(=O)c2cnccn2)NC(=O)C(CC2CCCCC2)NC(=O)C(CC2CC2)NC(=O)C=CC(=O)N1 (centres unmarked)
enrichment factor (AMPK; binding, DNA-templated library selection; one selection round): 1.2

OB(O)c1sccc1/C=N/OCc1ccccc1
inhibition (human pancreatic trypsin; enzyme activity, inhibitor; 100 µM): inactive
